# Published values from different studies.
# Each line is one published result; not all experiments were run side by side. “And” joins repeats or separate records; there may be more than shown. Numbers after ± are the reported error.
# Genome polyprotein NS3 helicase domain: Genome polyprotein, NS3 helicase domain (Hepatitis C virus genotype 1b, UniProt Q9WMX2)
# TAOK2: Serine/threonine-protein kinase TAO2 (TAOK2, Homo sapiens, UniProt Q9UL54)
# KCNQ3/KCNQ2: Voltage-gated potassium channel, KQT; KCNQ2(Kv7.2)/KCNQ3(Kv7.3) (KCNQ3/KCNQ2, Homo sapiens, UniProt O43525+O43526)
# DRD3: D(3) dopamine receptor (DRD3, Homo sapiens, UniProt P35462)
# Glutamate receptor 2: Glutamate receptor 2 (Homo sapiens, UniProt P42262)
SMILES,target,assay,test system,conditions,scale,inhibition
O=c1cc([C@@H](CO)NCc2c[nH]c3c(O)nc(O)nc23)o[nH]1,"Hypoxanthine-guanine-xanthine phosphoribosyltransferase (Plasmodium falciparum, UniProt P20035)","enzyme activity, inhibitor, coupled IMPDH",,up to 100 µM,,inactive
C=CC(N)CCC(=O)O (racemic),Genome polyprotein NS3 helicase domain,"DNA binding, inhibitor",hepatitis C virus,"100 µM, added: Cy5-dT15 DNA",,0%
CN(C)C1CCN(CC#Cc2nn(C3CCCC3)c3nc(NCc4ccccc4)ncc23)C1 (stereo not drawn),TAOK2,"enzyme activity, inhibitor, Z'-LYTE",,10000 nM,,5%
Cn1c(=O)c2[nH]cnc2n(C)c1=O,KCNQ3/KCNQ2,"ion current, antagonist, SyncroPatch patch clamp",HEK293,10 µM,,7%
COc1cccc(OC[C@@H]2CN(CC(=O)N3CCc4ccccc43)CCO2)c1,DRD3,radioligand binding,,"concentration not given, added: [3H]N-methylspiperone",,15%
CCc1oc2ccccc2c1C(=O)c1cc(Br)c(O)c(Br)c1,"Solute carrier family 22 member 12 (SLC22A12, Homo sapiens, UniProt Q96S37, F365A)",urate uptake,HEK293T,"0.5 µM, 10 min, 37 °C, added: 200 µM [14C]urate",,38.2% and 60.8% and 34.8% and 66.9% and 53.8% and 65%
CC(C)N(CCC(=O)c1ccc2ccccc2c1)Cc1ccccc1,"Coagulation factor XIII A chain (F13A1, Homo sapiens, UniProt P00488)",crosslinking activity,,"15 µM, without DTT",,inhibited
CC(C)NCC(O)COc1cccc2ccccc12 (stereo not drawn),Glutamate receptor 2,"ion current, negative allosteric modulator, SyncroPatch patch clamp",HEK293,30 µM,,-5%
O=C(CN1CCO[C@@H](COc2ccccn2)C1)N1CCc2ccccc21,DRD3,radioligand binding,,"concentration not given, added: [3H]N-methylspiperone",,4.5%
COc1ccc(S(=O)(=O)ON=C2C=C(C)C(=O)C(C)=C2)cc1,"Histone deacetylase 1 (HDAC1, Homo sapiens, UniProt Q13547)","enzyme activity, inhibitor",,concentration not given,,no inhibition
Cc1ccnc(OC[C@H]2CN(CC(=O)N3CCc4ccccc43)CCO2)c1,DRD3,radioligand binding,,"concentration not given, added: [3H]N-methylspiperone",,2.5%
COc1cc(C(=O)NS(=O)(=O)c2ccccc2C)ccc1Cc1cn(C)c2ccc(NC(=O)OC3CCCC3)cc12,"LRRC8A/LRRC8C (Homo sapiens, UniProt Q8IWT6+Q8TDW0, Y124F/Y126F)","ion current, whole-cell patch clamp",HCT LRRC8-/- cells,"10 µM, +100 mV, Y124F/Y126F heteromers",,-7.2% and 39.8% and -0.192% and 18.9% and 61.6%
O=C(NO)c1ccc(CN2CCCCc3ccccc32)c(F)c1,sigma-1 receptor,radioligand binding,,10 µM,,50.4%
CNc1cc(Oc2cc(C(=O)Nc3cc(N4CCN(C)CC4)cc(C(F)(F)F)c3)ccc2C)ncn1,"Serine/threonine-protein kinase Nek7 (NEK7, Homo sapiens, UniProt Q8TDX7)",kinase activity,,1 µM,,-14.1%
C#Cc1cccc(Nc2ncnc3cc(OCCOC)c(OCCOC)cc23)c1,"Insulin-like receptor (daf-2, Caenorhabditis elegans, UniProt Q968Y9)","inhibitor, radiometric phosphocellulose",,"10 µM, added: ATP 0.2 mM",,~24%
CN(C(=O)n1cnc(-c2ccc[n+]([O-])c2)c1)C1CCCCC1,"Leukotriene B4 receptor 1 (LTB4R, Homo sapiens, UniProt Q15722)",,,10 µM,,-2.66%
CC12CC3CC(C)(C1)CC(N)(C3)C2,KCNQ3/KCNQ2,"ion current, antagonist, SyncroPatch patch clamp",HEK293,3 µM,,0%
O=C(c1ccc(Cl)cc1)N1CCN(c2ccc([N+](=O)[O-])c3ncccc23)CC1,Genome polyprotein NS3 helicase domain,"DNA binding, inhibitor",hepatitis C virus,"100 µM, added: Cy5-dT15 DNA",,0%
O=C1c2ccccc2CCCN1CCCCN1CCN(c2ccccn2)CC1,DRD3,radioligand binding,,"concentration not given, added: [3H]N-methylspiperone",,99.1%
O=C(O)CCN1C(=O)C(=Cc2ccc(F)cc2)SC1=S,"Peptidyl-prolyl cis-trans isomerase A (PPIA, Homo sapiens, UniProt P62937)","isomerase activity, inhibitor",,"10 µM, enzyme 5 nM, chymotrypsin-coupled, added: N-succinyl-AAPF-p-nitroanilide",,no inhibition
CC(C)[C@H](NC(=O)OCc1ccccc1)C(=O)N[C@H](C=O)Cc1ccccc1,Genome polyprotein NS3 helicase domain,"DNA binding, inhibitor",hepatitis C virus,"100 µM, added: Cy5-dT15 DNA",,1%
CC/C(=N\NC(=O)NCc1cccc(O)c1)c1ccc(O)c(C)c1O,"Protein kinase C beta type, isoform beta-II (PRKCB, Homo sapiens, UniProt P05771)",kinase activity,,0.1 µM,,0.3%
CC[C@@H]1[C@H](F)C(=O)N[C@@H]1COc1nccc2cc(C(N)=O)c(OC)cc12,"eIF-2-alpha kinase GCN2 (EIF2AK4, Homo sapiens, UniProt Q9P2K8)","ATP-site probe binding, ActivX profiling, refers to: GCN2",THP-1 cell lysate,"0.01 mM, Lys1 site",,-4.6%
NCCCCCCCCCCN,Genome polyprotein NS3 helicase domain,"DNA binding, inhibitor",hepatitis C virus,"100 µM, added: Cy5-dT15 DNA",,2%
CCCCCCCCCCCC1NCCc2cc(O)c(O)cc21 (stereo not drawn),tyrosinase,"enzyme activity, inhibitor",,"100 µM, added: levodopa",,9.18 ± 3.94%
Cn1cc(-n2cnc3c(NCc4nc5cc(Cl)c(Cl)cc5[nH]4)nc(N4CCOCC4)nc32)cn1,"Cyclin-dependent kinase 12, with cyclin K (CDK12, Homo sapiens, UniProt Q9NYV4)","kinase activity, inhibitor, ADP-Glo",,0.0247 µM,,23.8%
C[C@H]1c2nc3ccccc3c(-c3ccccc3)c2[C@H]2C[C@@H]1N(Cc1ccccc1)C[C@]2(C)O,"Kappa-type opioid receptor (OPRK1, Cavia porcellus, UniProt P41144)","binding, radioligand binding",guinea pig brain,"1 µM, added: [3H]U-69,593",,0%
COc1cc(C2NCCc3cc(O)c(O)cc32)cc(OC)c1O (stereo not drawn),tyrosinase,"enzyme activity, inhibitor",,"100 µM, added: levodopa",,15.8 ± 2.98%
COc1cc2c(cc1OC)-c1c/c(=N\c3c(C)cc(C)cc3C)n(C)c(=O)n1CC2,Genome polyprotein NS3 helicase domain,"DNA binding, inhibitor",hepatitis C virus,"100 µM, added: Cy5-dT15 DNA",,1%
Cc1cc(-c2ccnc3[nH]cc(F)c23)cc(F)c1[C@@]1(O)[C@H](C)CN(C2CCS(=O)(=O)CC2)C[C@@H]1C,CDK11 and CDK8,"ATP probe binding, KiNativ, refers to: Lys2 site",HEK293T cell lysate,1 µM,,46.7%
CCCCCC(O)c1cccc(OCc2ccc3ccccc3n2)c1 (stereo not drawn),Genome polyprotein NS3 helicase domain,"DNA binding, inhibitor",hepatitis C virus,"100 µM, added: Cy5-dT15 DNA",,1%
Cc1ncccc1OC[C@@H]1CN(CCN2CCc3ccccc32)CCO1,DRD3,radioligand binding,,"concentration not given, added: [3H]N-methylspiperone",,11.7%
Cc1cc(-c2ccnc3[nH]cc(F)c23)cc(F)c1[C@@]1(O)[C@H](C)CN(C(=O)CN)C[C@@H]1C,CDK11 and CDK8,"ATP probe binding, KiNativ, refers to: Lys2 site",HEK293T cell lysate,0.1 µM,,14.9%
CC(C)OC(=O)C(C)(C)Oc1ccc(C(=O)c2ccc(Cl)cc2)cc1,Genome polyprotein NS3 helicase domain,"DNA binding, inhibitor",hepatitis C virus,"100 µM, added: Cy5-dT15 DNA",,0%
Cc1nc2sccn2c(=O)c1CCN1CCC(=C(c2ccccc2)c2ccc(F)cc2)CC1,"Diacylglycerol kinase alpha (Rattus norvegicus, UniProt P51556)","kinase activity, inhibitor",HEK293T cell lysate,50 µM,reference: DMSO,~72%
Nc1c(Br)cc(Br)cc1CN[C@H]1CC[C@H](O)CC1,KCNQ3/KCNQ2,"ion current, antagonist, SyncroPatch patch clamp",HEK293,3 µM,,-5%
[2H]c1cc(C)c(NC(=O)c2cnc(Nc3cc(N4CCCCC4)nc(C)n3)s2)c(Cl)c1,"Tyrosine-protein kinase Srms (SRMS, Homo sapiens, UniProt Q9H3Y6)",,,0.01 µM,,30 to 90%
OCCCN1CC[C@@H]2C[C@H]1c1cc(-c3ccc(C(F)(F)F)cc3)ccc12,DRD3,"radioligand binding, PDSP competition binding",,10 µM,,< 50%
O=C1NC(=O)C(c2ccccc2)(c2ccccc2)N1,Glutamate receptor 2,"ion current, negative allosteric modulator, SyncroPatch patch clamp",HEK293,3 µM,,7%
CC(C)=CC1NCCc2cc(O)c(O)cc21 (stereo not drawn),tyrosinase,"enzyme activity, inhibitor",,"100 µM, added: levodopa",,12.9 ± 2.51%
Cc1ccc(C(=O)Nc2ccc3ccccc3c2)o1,"Acid-sensing ion channel 1 (Asic1, Rattus norvegicus, UniProt P55926)","ion current, inhibitor, whole-cell patch clamp",,10 µM,,2.38% and 0.7% and 9.1% and 3.48% and 10%
COc1cc2ncnc(Nc3ccc(Oc4ccccc4)cc3C)c2cc1OC,TAOK2,"kinase activity, inhibitor",,1 µM,,-8%
c1cncc(OC[C@@H]2CN(CCN3CCc4ccccc43)CCO2)c1,DRD3,radioligand binding,,"concentration not given, added: [3H]N-methylspiperone",,26.9%
COc1ccc(/C=C2\COc3ccc(C)cc3C2=O)cc1O,Genome polyprotein NS3 helicase domain,"DNA binding, inhibitor",hepatitis C virus,"100 µM, added: Cy5-dT15 DNA",,1%
CCNCc1cnn(-c2ccc(-n3ccc(Cl)c(Cl)c3=O)cc2)c1C(F)(F)F,"Transient receptor potential cation channel subfamily M member 8 (Trpm8, Rattus norvegicus, UniProt Q8R455)","ion current, inhibitor, whole-cell patch clamp",,"10 µM, added: menthol-activated",,no inhibition

# Repeated from above:
SMILES,target,assay,test system,conditions,scale,inhibition
Cc1ncccc1OC[C@@H]1CN(CCN2CCc3ccccc32)CCO1,DRD3,radioligand binding,,"concentration not given, added: [3H]N-methylspiperone",,11.7%
Cc1cc(-c2ccnc3[nH]cc(F)c23)cc(F)c1[C@@]1(O)[C@H](C)CN(C(=O)CN)C[C@@H]1C,CDK11 and CDK8,"ATP probe binding, KiNativ, refers to: Lys2 site",HEK293T cell lysate,0.1 µM,,14.9%
CC(C)OC(=O)C(C)(C)Oc1ccc(C(=O)c2ccc(Cl)cc2)cc1,Genome polyprotein NS3 helicase domain,"DNA binding, inhibitor",hepatitis C virus,"100 µM, added: Cy5-dT15 DNA",,0%
Cc1nc2sccn2c(=O)c1CCN1CCC(=C(c2ccccc2)c2ccc(F)cc2)CC1,"Diacylglycerol kinase alpha (Rattus norvegicus, UniProt P51556)","kinase activity, inhibitor",HEK293T cell lysate,50 µM,reference: DMSO,~72%
